{"data": "Results collected from several papers", "note": "Every numbered part comes from another study and shows a few of its results, in no order."}
{"data": "Set 1", "target": "Ras GTPase-activating protein-binding protein 1, C-terminal RGG region (G3BP1, Homo sapiens, UniProt Q13283)", "method": "RNA Bind-n-Seq", "form": "RNA", "matrix": "in vitro", "tested at": "1 µM", "notes": "whole 134-nt RNA, ends assumed", "with": "150 mM KCl", "relative to": "input library", "direction": "higher = stronger binding", "constant ends, left off below": "GGGAGUUCUACAGUCCGACGAUC … UGGAAUUCUCGGGUGUCAAGG", "sequence of UniProt Q13283 (whole entry, looked up)": "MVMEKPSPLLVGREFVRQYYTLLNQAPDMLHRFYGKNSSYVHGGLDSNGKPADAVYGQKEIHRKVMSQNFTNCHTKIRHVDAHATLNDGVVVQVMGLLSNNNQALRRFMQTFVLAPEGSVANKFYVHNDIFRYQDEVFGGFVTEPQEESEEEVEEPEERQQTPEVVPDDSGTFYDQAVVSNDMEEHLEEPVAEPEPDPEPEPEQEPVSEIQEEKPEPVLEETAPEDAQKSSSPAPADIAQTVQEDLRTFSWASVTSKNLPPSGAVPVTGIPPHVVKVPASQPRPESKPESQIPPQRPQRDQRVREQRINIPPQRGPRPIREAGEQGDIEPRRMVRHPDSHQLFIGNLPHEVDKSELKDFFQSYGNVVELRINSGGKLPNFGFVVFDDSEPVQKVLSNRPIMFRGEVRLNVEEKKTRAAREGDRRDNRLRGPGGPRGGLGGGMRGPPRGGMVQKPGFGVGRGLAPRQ"}
{"Oligonucleotide": "GUCCUGUGCUACACAUCGUAUGUACCGAAUCGGGGUUUUUGGGGUUUUUGGUUUUUGGGAAAGUAUUAUGUUACGCCGUUCGGAUCUGCA", "log2 enrichment": -0.901}
{"Oligonucleotide": "GUCCUGUGCUACACAUCGUAUGUACCGAAUCGGGAAAGGGUUUUUGGGAAAAAAAGGGAAAGUAUUAUGUUACGCCGUUCGGAUCUGCAC", "log2 enrichment": -0.627}
{"Oligonucleotide": "GCAGGAAGUAAAAACAAAUGGAAAUGCUUCGGAUAGUGGCAGGGGUGGGGGUUGCUAAGGUAAGGGUGGGAUGGGAGUGGGUAAAGAGUU", "log2 enrichment": 2.03}
{"Oligonucleotide": "GCAGGAAGUAAAAACAAAUGGAAAUGCUUCGGAUAGUGGCAGGGGUGGGGGUUGCUAAGGAUAGGGUGGGAUGGGAGUGGGUAAAGAGUU", "log2 enrichment": 2.09}
{"Oligonucleotide": "GUCCUGUGCUACACAUCGUAUGUACCGAAUCGGGAAAAAGGGAAAAAAAGGGAAAGGGAAAGUAUUAUGUUACGCCGUUCGGAUCUGCAC", "log2 enrichment": -0.405}
{"Oligonucleotide": "AAGUCCUGUGCUACACAUCGUAUGUACCGAAUCGGGGUGGGGAAAAAGGGGAGGGGAAAGUAUUAUGUUACGCCGUUCGGAUCUGCACUU", "log2 enrichment": 2.45}
{"Oligonucleotide": "UCAAGUCCUGUGCUACACAUCGUAUGUACCGAAUCGGUUUUUGGAGGAAAAAGGAAAGUAUUAUGUUACGCCGUUCGGAUCUGCACUUCC", "log2 enrichment": -1.29}
{"data": "Set 2", "target": "Sal-like protein 4, full length isoform B (SALL4, Homo sapiens, UniProt Q9UJQ4-2, residues 1-616)", "method": "universal PBM", "form": "double-stranded DNA, one strand shown", "matrix": "in vitro", "tested at": "not given", "notes": "8-mer, flanks averaged, mean of replicates", "direction": "higher = stronger binding"}
{"Oligonucleotide": "ATTGCCGG", "E-score": -0.211}
{"Oligonucleotide": "CAACGGAC", "E-score": -0.105}
{"Oligonucleotide": "AAGTTCAA", "E-score": 0.173}
{"Oligonucleotide": "CACACATG", "E-score": -0.049}
{"Oligonucleotide": "ACCACGTG", "E-score": -0.275}
{"data": "Set 3", "target": "Prothrombin, mature alpha-thrombin (F2, Homo sapiens, UniProt P00734)", "method": "aptamer microarray, sandwich", "form": "DNA with 2'F-ANA", "matrix": "in vitro", "tested at": "200 nM", "notes": "whole 15-mer aptamer, many near background", "with": "Cy3 exosite-II aptamer, 400 nM", "direction": "higher = stronger binding", "oligonucleotide": "GGTTGGTGTGGTTGG"}
{"Modification": "2'F-ANA at 1 7 9 13", "mean fluorescence intensity": "132 a.u."}
{"Modification": "2'F-ANA at 1 2 6 8 9 11", "mean fluorescence intensity": "124 a.u."}
{"Modification": "2'F-ANA at 1 3 8 10 13 15", "mean fluorescence intensity": "74.6 a.u."}
{"Modification": "2'F-ANA at 1 2 4 5 14 15", "mean fluorescence intensity": "44.8 a.u."}
{"Modification": "2'F-ANA at 1 2 4 7 8 11 12", "mean fluorescence intensity": "280 a.u."}
{"Modification": "2'F-ANA at 3 7 12 14", "mean fluorescence intensity": "819 a.u."}
{"data": "Mixed results"}
{"Molecule": "PhoQ, residues 284 288 289 292 302 303 TTCLQL", "target": "PhoP, residues 12 14 15 18 19 LHHVQ (Escherichia coli, UniProt P23836)", "assay": "Sort-seq, item: YFP reporter", "system": "E. coli", "setting": "PhoQ-PhoP variant library, with: 10 µM Mg2+", "scale": "relative to: high Mg2+ state, higher = stronger signaling", "quantity": "fold induction", "value": 5.95}
{"note": "Excerpt of the above (set 1):"}
{"Oligonucleotide": "UCAAGUCCUGUGCUACACAUCGUAUGUACCGAAUCGGUUUUUGGAGGAAAAAGGAAAGUAUUAUGUUACGCCGUUCGGAUCUGCACUUCC", "log2 enrichment": -1.29}
